Measurements of several laboratories.
Several values in a cell are separate wells, animals, samples, runs or records. Numbers after ± are the reported error. In brackets after ≈: the same amount, converted by molar mass.
GBA2: Beta-glucosidase (GBA2, Homo sapiens, UniProt Q9HCG7)
UniProt Q9HCG7, sequence (whole entry, looked up): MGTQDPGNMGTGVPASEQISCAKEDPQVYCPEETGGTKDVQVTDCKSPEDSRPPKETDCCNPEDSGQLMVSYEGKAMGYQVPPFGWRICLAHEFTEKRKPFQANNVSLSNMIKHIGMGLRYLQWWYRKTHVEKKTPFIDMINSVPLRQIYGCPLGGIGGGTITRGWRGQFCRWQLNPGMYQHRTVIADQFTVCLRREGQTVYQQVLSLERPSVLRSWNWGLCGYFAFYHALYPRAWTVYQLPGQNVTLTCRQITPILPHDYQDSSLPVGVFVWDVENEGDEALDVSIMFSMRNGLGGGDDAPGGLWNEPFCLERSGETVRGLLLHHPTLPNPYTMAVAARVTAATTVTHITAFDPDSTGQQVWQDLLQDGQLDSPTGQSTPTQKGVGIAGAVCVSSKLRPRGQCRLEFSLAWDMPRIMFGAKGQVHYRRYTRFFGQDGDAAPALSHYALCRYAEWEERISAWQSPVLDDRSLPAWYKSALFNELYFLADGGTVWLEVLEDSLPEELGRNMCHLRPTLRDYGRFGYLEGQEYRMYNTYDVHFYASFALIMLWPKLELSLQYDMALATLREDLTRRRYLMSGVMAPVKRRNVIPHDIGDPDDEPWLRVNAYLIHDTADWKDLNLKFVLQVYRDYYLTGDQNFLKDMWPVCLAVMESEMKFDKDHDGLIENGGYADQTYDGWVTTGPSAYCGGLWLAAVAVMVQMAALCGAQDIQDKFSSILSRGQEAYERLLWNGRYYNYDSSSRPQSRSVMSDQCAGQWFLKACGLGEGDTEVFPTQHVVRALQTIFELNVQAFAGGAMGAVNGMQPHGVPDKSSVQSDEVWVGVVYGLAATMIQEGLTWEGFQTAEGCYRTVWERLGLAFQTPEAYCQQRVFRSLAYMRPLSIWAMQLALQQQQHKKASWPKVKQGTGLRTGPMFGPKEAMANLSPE

| Compound | tested on | test | system | setting | how to read | quantity | result |
| --- | --- | --- | --- | --- | --- | --- | --- |
| Cc1cccc2c1N(C(=O)n1ccnn1)CC2 | Arabidopsis thaliana |  | kai2 mutant, seeds | 10 µM |  | germination rate | 11.5% and 16.7% and 26.9% and 32.1% and 8.6% and 7.7% |
| Cc1cc(Cl)cc(S(C)=NC#N)c1NC(=O)c1cc(Br)nn1-c1ncccc1Cl (centres unmarked) | Spodoptera litura |  | Brassica oleracea field plot | 50 ppm, 168 h, 10% wettable powder |  | larval viability | 17.1% and 20% and 14.3% |
| CNCc1ccc2c(c1)C[C@H](CNC(=N)N)[C@H]2NC(=O)C(=O)Nc1ccc(Cl)c(F)c1 | HIV-1 | pseudovirus infection, Env pseudovirus neutralisation | TZM-bl, clade C T/F isolate 2A2 |  |  | IC80 | > 100000 nM |
| COC1C=COC2(C)Oc3c(C)c(O)c4c(c3C2=O)C2=NC3(CCN(CC(C)C)CC3)NC2=C(NC(=O)C(C)=CC=CC(C)C(O)C(C)C(O)C(C)C(OC(=O)Nc2cscn2)C1C)C4=O (centres unmarked) | Mycobacteroides abscessus | intracellular growth, visual read | THP-1 derived macrophages, ATCC 19977 |  |  | IC50 | 20 nM |
| O=C1C(NCCc2cc(Br)c(O)c(Br)c2)=CC2=NCCc3c[nH]c1c32 | Babesia divergens | parasite growth, SYBR Green |  | 60 h, blood stage |  | IC50 | 6720 nM |
| Cc1ncsc1-c1ccc(C(C)NC(=O)C2CC(O)CN2C(=O)C(NC(=O)CCCCCCCCCCN2CCCC(Nc3ncc(Cl)c(Nc4ccccc4S(=O)(=O)C(C)C)n3)C2)C(C)(C)C)cc1 (centres unmarked) | 22Rv1 | RNA-seq, measured: ZNF778 mRNA |  | concentration not given | reference: DMSO | log2 fold change | -1.19 |
| FC(F)(F)c1cccc(CNc2nc(NC3CCN(Cc4ccccc4)CC3)c3nc[nH]c3n2)c1 | Cryptococcus neoformans |  |  | 50 µM, 17 h, shaken broth culture | reference: DMSO | growth inhibition | ~95% |
| C[N+](C)(C)CCO.O=C([O-])C(Cl)Cl | Eclipta prostrata |  |  | 15 mg/mL, 21 days, pre-emergence, greenhouse |  | herbicidal inhibition | 0% |
| OC[C@@H]1[C@@H](O)[C@H](O)[C@@H](O)CN1CCCCCOCc1ccc(-c2ccc(F)cc2)cc1 | GBA2 | inhibitor, 4MU-β-D-glucopyranoside | HEK293T homogenates overexpressing GBA2 |  | reference: GCS IC50 over GBA2 IC50 | selectivity ratio | 25 |
| CCOC(=O)/C=C/[C@H](C[C@@H]1CCNC1=O)NC(=O)[C@@H](CC(=O)[C@@H](NC(=O)c1cc(C)on1)C(C)C)Cc1ccc(F)cc1 | Rhinovirus B | viral replication, high-content imaging | RV-B14 |  |  | IC50 | 6 ± 2 nM |
| N=C(N)NCCC[C@@H]1NC(=O)[C@H](CCCNC(=N)N)NC(=O)[C@@H](C(c2ccccc2)c2ccccc2)NC(=O)[C@H](Cc2c[nH]c3ccccc23)NC(=O)[C@@H](C(c2ccccc2)c2ccccc2)NC(=O)[C@@H](CCCNC(=N)N)NC(=O)[C@@H](CCCNC(=N)N)NC1=O | Candida parapsilosis |  | ATCC 22019 |  |  | MIC | 16 µg/mL (≈ 12.7 µM) |
| NCCOCCO.O=C(O)C(Cl)Cl | Amaranthus retroflexus | herbicidal activity |  | 15 mg/mL, 21 days, post-emergence greenhouse |  | inhibition | 0% |
| Cc1c(CN(C)C(=O)/C=C/c2cnc3c(c2)CC(N)C(=O)N3)oc2ccccc12 (centres unmarked) | Klebsiella pneumoniae | broth microdilution | AR-0066 |  |  | MIC | 32 µg/mL (≈ 82 µM) |
| CC(C)C[C@@H](NC(=O)[C@@H](CC(C)C)NC(=O)[C@@H](CC(=O)O)NC(=O)[C@@H](CC(C)C)NC(=O)[C@@H](CC(C)C)NC(=O)[C@@H](CC(C)C)NC(=O)[C@H](NC(=O)[C@@H](CC(=O)O)NC(=O)[C@H](NC(=O)[C@H]1CCCN1C(=O)[C@@H](Cc1ccccc1)NC(=O)[C@@H](CC(C)C)NC(=O)[C@@H](CC(C)C)NC(=O)[C@@H](CC(=O)O)NC(=O)[C@@H](CC(C)C)NC(=O)[C@@H](Cc1ccc(O)cc1)NC(=O)[C@@H](C)NC(=O)[C@@H](CCCNC(=N)N)NC(=O)[C@@H](Cc1c[nH]c2ccccc12)NC(=O)[C@H]1CCCN1C(=O)[C@@H](CC(N)=O)NC(=O)[C@@H](CCC(N)=O)NC(=O)[C@@H](CC(=O)O)NC(=O)[C@@H](CC(=O)O)NC(=O)[C@@H](CSC1CC(=O)N(CCNC(=O)CN2CCN(CC(=O)O)CCN(CC(=O)O)CC2)C1=O)NC(=O)[C@@H](C)N)[C@H](C)O)[C@H](C)O)C(=O)N[C@H](Cc1c[nH]c2ccccc12)C(=O)O (some centres unmarked) [fluorine-18 labelled] |  |  | male nude mice, PC-3 xenograft, blood | intravenous, 1 h |  | tissue uptake | 16.2 %ID/g |
| COC1=CC2=NCCc3c[nH]c(c32)C1=O | Babesia divergens | parasite growth, SYBR Green |  | 60 h, blood stage |  | IC50 | 4430 nM |
| CNCc1ccc2c(c1)N(C(=O)OCc1c(F)c(F)c(F)c(F)c1F)[C@H](CNC(=N)N)[C@H]2NC(=O)C(=O)Nc1ccc(Cl)c(F)c1 | HIV-1 | viral infection | TZM-bl, CRF02_AG 263-8 Env pseudovirus |  |  | IC80 | 1130 nM |
| CC(C)(C)NCC(SS(=O)(=O)O)c1ccccc1 (centres unmarked) | Schistosoma mansoni |  | mice | 400 mg/kg single dose, 1248 h, dosed day 7, perfused 52 | reference: vehicle | male worm burden reduction | 20% |
| O=C1C(NCCc2ccc(O)cc2)=CC2=NCCc3c(Br)[nH]c1c32 | Babesia divergens | parasite growth, SYBR Green |  | 60 h, blood stage |  | IC50 | 2130 nM |
| C=C(NC(=O)c1csc(-c2nc3c(cc2O)-c2nc(cs2)C(=O)NC(C(C)O)C(=O)NC(=C(C)OC)c2nc(cs2)C(=O)NC2c4nc(cs4)C(=O)NC(COC(=O)c4c5c6c(cccc6n4O)COC(=O)C(OC4CC(C)(O)C(N(C)C)C(C)O4)C2OC5)c2nc-3cs2)n1)C(N)=O (centres unmarked) | Streptococcus pyogenes |  | 10 isolates | pH 7.0 |  | MIC50 | 7.8 ng/mL (≈ 0.00543 µM) |
| CCCCCCCCCC(=O)N[C@@H](Cc1c[nH]c2ccccc12)C(=O)N[C@H](CC(N)=O)C(=O)N[C@@H](CC(=O)O)C(=O)N[C@@H]1C(=O)NCC(=O)N[C@@H](CCCNC(=O)OC2/C=C/CCCCC2)C(=O)N[C@@H](CC(=O)O)C(=O)N[C@H](C)C(=O)N[C@@H](CC(=O)O)C(=O)NCC(=O)N[C@H](CO)C(=O)N[C@@H]([C@H](C)CC(=O)O)C(=O)N[C@@H](CC(=O)c2ccccc2N)C(=O)O[C@@H]1C (some centres unmarked) | Staphylococcus aureus | planktonic bacterial growth, isothermal microcalorimetry | MSSA | 2.0 µg/mL, 24 h, 37 °C |  | peak heat flow | 0 µW |
| C=C[C@]1(C)C[C@@H](OC(=O)CSc2ccc(NC(=O)c3ccco3)cc2)[C@]2(C)[C@H](C)CC[C@]3(CCC(=O)[C@H]32)[C@@H](C)[C@@H]1O | Mycoplasma gallisepticum |  | infected chickens, lung | intramuscular, 40 mg/kg daily x3, 72 h |  | lung mycoplasma count | 3.88 log10 CFU/mL and 4.23 log10 CFU/mL and 4.84 log10 CFU/mL and 4.1 log10 CFU/mL and 4.25 log10 CFU/mL and 3.33 log10 CFU/mL and 4.57 log10 CFU/mL |
| CCOC(=O)c1ccc(OCCC2CCN(c3ccc(C)nn3)CC2)cc1 | Rhinovirus B | viral replication, high-content imaging | RV-B14 |  |  | IC50 | 24 ± 25 nM |
| COC1CN([C@H]2CC[C@H]([C@@]3(C)Oc4c(Cl)cc(C(=O)NCc5c(SC)cc(C)[nH]c5=O)c(C)c4O3)CC2)C1 |  | RNA-seq, measured: P2RY14 | human, whole blood | dose not given, 24 h | reference: pretreatment baseline | log2 fold change | 1.64 |
| C[C@@H]1C(=O)O[C@@H](C)/C=C/C=C\[C@@H](C)[C@@H]2C=C[C@@H]3C[C@@]4(C)O[C@H]4[C@@H](C)[C@H]3[C@@H]2C(=O)C(Cl)(Cl)C1=O | Staphylococcus aureus |  | MRSA clinical isolate | OXA FA resistant |  | MIC | 0.1 µg/mL (≈ 0.202 µM) |
| O=C(Oc1cc(OC(=O)c2cc(O)c(O)c(O)c2)c2ccccc2c1)c1cc(O)c(O)c(O)c1 | herpes simplex virus 2 | transmission electron microscopy | extracellular virus particles | 100 µM, 1 h, 37 °C |  | viral envelope disintegration | 71.4% |
| Cc1ccc(S(=O)(=O)n2cc3c4c2C(=O)C(N)=CC4=NCC3)cc1 | Babesia divergens | parasite growth, SYBR Green |  | 60 h, blood stage |  | IC50 | 597 nM |
| OC[C@@H]1[C@@H](O)[C@H](O)[C@@H](O)CN1CC(F)(F)CCCOCc1ccc(-c2ccccc2)cc1 | GBA2 | inhibitor, 4MU-β-D-glucopyranoside | HEK293T homogenates overexpressing GBA2 |  | reference: GCS IC50 over GBA2 IC50 | selectivity ratio | 125 |
| COC1C=COC2(C)Oc3c(C)c(O)c4c(c3C2=O)C2=NC3(CCN(CC(C)C)CC3)NC2=C(NC(=O)C(C)=CC=CC(C)C(O)C(C)C(O)C(C)C(OC(=O)Nc2cnccn2)C1C)C4=O (centres unmarked) | Mycobacteroides abscessus | bacterial growth | subsp. massiliense clinical isolate | slow grower |  | IC50 | 9 nM |
| CC(O)CNCC(C)O.O=C(O)C(Cl)Cl (centres unmarked) | Amaranthus retroflexus | herbicidal activity |  | 15 mg/mL, 21 days, post-emergence greenhouse |  | inhibition | 0% |

Repeated from above:
| Compound | tested on | test | system | setting | how to read | quantity | result |
| --- | --- | --- | --- | --- | --- | --- | --- |
| OC[C@@H]1[C@@H](O)[C@H](O)[C@@H](O)CN1CC(F)(F)CCCOCc1ccc(-c2ccccc2)cc1 | GBA2 | inhibitor, 4MU-β-D-glucopyranoside | HEK293T homogenates overexpressing GBA2 |  | reference: GCS IC50 over GBA2 IC50 | selectivity ratio | 125 |
| CCOC(=O)/C=C/[C@H](C[C@@H]1CCNC1=O)NC(=O)[C@@H](CC(=O)[C@@H](NC(=O)c1cc(C)on1)C(C)C)Cc1ccc(F)cc1 | Rhinovirus B | viral replication, high-content imaging | RV-B14 |  |  | IC50 | 6 ± 2 nM |
| Cc1cc(Cl)cc(S(C)=NC#N)c1NC(=O)c1cc(Br)nn1-c1ncccc1Cl (centres unmarked) | Spodoptera litura |  | Brassica oleracea field plot | 50 ppm, 168 h, 10% wettable powder |  | larval viability | 17.1% and 20% and 14.3% |
